{"data": "Experimental data gathered from unrelated publications", "note": "Protocols differ between the studies behind these lines. Values joined by “and” are separate records of one study, mostly repeats; a detail may differ."}
{"SMILES": "C[C@@H](O)[C@@H](CO)NC(=O)[C@@H](CCCNC(=N)N)NC(=O)[C@@H]1CCCN1C(=O)[C@@H]1CSSC[C@H](NC(=O)[C@H](Cc2ccccc2)NC(=O)CN2CCN(CC(=O)O)CCN(CC(=O)O)CCN(CC(=O)O)CC2)C(=O)N[C@@H](Cc2ccc(O)cc2)C(=O)N[C@@H](Cc2ccccc2)C(=O)N[C@@H](CCC(N)=O)C(=O)N[C@@H](CC(N)=O)C(=O)N1 [gallium-68 labelled]", "test system": "human serum", "setting": "1 h, 37 °C", "measurement": "radiochemical purity", "result": "> 99%"}
{"SMILES": "CO/N=C(\\C(=O)N[C@@H]1C(=O)N2C(C(=O)O)=C(CSC(=O)c3ccco3)CS[C@H]12)c1csc(N)n1", "tested on": "Salmonella enterica", "setting": "20 h, pH 7.2", "measurement": "MIC", "result": "1 µg/mL"}
{"SMILES": "CC(O)(CS(=O)(=O)c1ccc(F)cc1)C(=O)Nc1ccc(C#N)c(C(F)(F)F)c1 (centres unmarked)", "tested on": "human coronavirus OC43", "assay": "virus-induced cell killing", "test system": "MRC-5", "setting": "maximum over 10 doses", "measurement": "maximum inhibition", "result": "0%"}
{"SMILES": "COc1cc(Cc2cnc(N)nc2N)cc(OC)c1OC", "tested on": "Salmonella enterica", "setting": "20 h, pH 7.2", "measurement": "MIC", "result": "0.125 µg/mL"}
{"SMILES": "CCN(CC)CCNC(=O)c1cc(-c2ccc(Br)s2)nc2ccccc12", "tested on": "Vero-E6", "assay": "CellTiter-Glo ATP", "setting": "72 h, retest 8-point duplicates", "how to read": "relative to: DMSO 0%, hyamine -100%, more negative, more toxic", "measurement": "maximum response", "result": "-73.1%"}
{"SMILES": "CC(C)C[C@H](NC(=O)C[C@H](O)[C@H](CC(C)C)NC(=O)[C@H](Cc1c[nH]cn1)NC(=O)CNC(=O)[C@@H](NC(=O)[C@H](C)NC(=O)[C@H](Cc1c[nH]c2ccccc12)NC(=O)[C@H](CCC(N)=O)NC(=O)[C@@H](Cc1ccccc1)NC(=O)CCNC(=O)CCSc1nnc(NCCC(=O)NCCC(=O)NCCCC[C@H](NC(=O)N[C@@H](CCC(=O)O)C(=O)O)C(=O)O)c2c1CCC1C(CC2)C1COC(=O)NCCNC(=O)CC[C@H](C(=O)O)N1CCN(CC(=O)O)CCN(CC(=O)O)CC1)C(C)C)C(N)=O (some centres unmarked) [gallium-68 labelled]", "test system": "athymic NMRI nude mouse, kidneys", "setting": "intravenous, 533 pmol, 2 h", "measurement": "tissue uptake", "result": "17.6 %ID/g"}
{"SMILES": "CC[C@H](C)[C@H](NC(=O)[C@H](CC(C)C)NC(=O)[C@H](CC(C)C)NC(=O)[C@H](CC(C)C)NC(=O)[C@@H](NC(=O)[C@@H](NC(=O)[C@H](CCCCN)NC(=O)[C@H](CCCCN)NC(=O)[C@H](CCCCN)NC(=O)[C@H](CCCCN)NC(=O)[C@H](CC(C)C)NC(=O)[C@H](CCCNC(=N)N)NC(=O)[C@H](CO)NC(=O)[C@@H](N)CO)[C@@H](C)CC)C(C)C)C(=O)N[C@@H](CO)C(=O)N[C@@H](CCCCN)C(=O)N[C@@H](CCCCN)C(=O)N[C@@H](CCCCN)C(=O)N[C@@H](CCCCN)C(N)=O", "tested on": "Acinetobacter baumannii, Enterococcus faecalis", "measurement": "MIC range", "result": "4 to 8 µM"}
{"SMILES": "CCOc1ccc(NC(=O)c2cnn(-c3ccc(C)c(Cl)c3)c2C2CCNCC2)cc1", "tested on": "Vero-E6", "assay": "CellTiter-Glo ATP", "setting": "concentration not given, 72 h, first round 5-point", "how to read": "relative to: DMSO 0%, hyamine -100%, more negative, more toxic", "measurement": "cytotoxicity efficacy", "result": "0%"}
{"SMILES": "CC(=O)Nc1ccc(OC[C@](C)(O)C(=O)Nc2ccc([N+](=O)[O-])c(C(F)(F)F)c2)cc1", "tested on": "human coronavirus OC43", "assay": "virus-induced cell killing", "test system": "MRC-5", "setting": "maximum over 10 doses", "measurement": "maximum inhibition", "result": "0%"}
{"SMILES": "CS(=O)(=O)Nc1ncn(-c2cc(F)c(COc3ccc(OS(=O)(=O)F)cc3)c(F)c2)n1", "tested on": "Mycobacterium tuberculosis", "test system": "clinical isolate", "measurement": "MIC", "result": "0.063 µM"}
{"SMILES": "CO[C@H]1/C=C/O[C@@]2(C)Oc3c(C)c(O)c4c(O)c(c(/C=N/N5CCN(C)CC5)c(O)c4c3C2=O)NC(=O)/C(C)=C\\C=C\\[C@H](C)[C@H](O)[C@@H](C)[C@@H](O)[C@@H](C)[C@H](OC(C)=O)[C@@H]1C", "tested on": "Mycobacteroides abscessus", "test system": "RFB-R1 rifamycin-resistant RNAP mutant", "how to read": "90% growth inhibition", "measurement": "MIC", "result": "> 100 µM"}
{"SMILES": "CS(=O)(=O)c1ccc([C@@H](O)[C@@H](CF)NC(=O)C(Cl)Cl)cc1", "tested on": "Salmonella enterica", "setting": "20 h, pH 7.2", "measurement": "MIC", "result": "4 µg/mL"}
{"SMILES": "C[C@](O)(COc1ccc(C#N)cc1)C(=O)Nc1ccc(C#N)c(C(F)(F)F)c1", "tested on": "human coronavirus OC43", "assay": "virus-induced cell killing", "test system": "MRC-5", "setting": "maximum over 10 doses", "measurement": "maximum inhibition", "result": "0%"}
{"SMILES": "OC(Cn1cncn1)(Cn1cncn1)c1ccc(F)cc1F", "tested on": "Saccharomyces cerevisiae", "assay": "OD600", "test system": "Pdr5-deficient, empty vector", "setting": "10 µg/mL", "how to read": "relative to: no-drug control", "measurement": "relative growth", "result": "1.28% and 2% and 0.714%"}
{"note": "Some of these lines once more:"}
{"SMILES": "CO[C@H]1/C=C/O[C@@]2(C)Oc3c(C)c(O)c4c(O)c(c(/C=N/N5CCN(C)CC5)c(O)c4c3C2=O)NC(=O)/C(C)=C\\C=C\\[C@H](C)[C@H](O)[C@@H](C)[C@@H](O)[C@@H](C)[C@H](OC(C)=O)[C@@H]1C", "tested on": "Mycobacteroides abscessus", "test system": "RFB-R1 rifamycin-resistant RNAP mutant", "how to read": "90% growth inhibition", "measurement": "MIC", "result": "> 100 µM"}
{"SMILES": "CS(=O)(=O)c1ccc([C@@H](O)[C@@H](CF)NC(=O)C(Cl)Cl)cc1", "tested on": "Salmonella enterica", "setting": "20 h, pH 7.2", "measurement": "MIC", "result": "4 µg/mL"}
